{"data": "Measurements collected from several papers", "note": "Each numbered part is a random draw from the data of one study; scales do not carry over between parts."}
{"data": "Sample 1", "target": "Prothrombin, mature alpha-thrombin (F2, Homo sapiens, UniProt P00734)", "method": "aptamer microarray, sandwich", "form": "DNA with 2'F-ANA", "sample": "in vitro", "tested at": "200 nM", "notes": "whole 15-mer aptamer, many near background", "together with": "Cy3 exosite-II aptamer, 400 nM", "direction": "higher = stronger binding", "sequence": "GGTTGGTGTGGTTGG"}
{"Modification": "2'F-ANA at 1 2 4 6 10 11 12 15", "mean fluorescence intensity": "53.8 a.u."}
{"Modification": "2'F-ANA at 2 3 4 6 7 8 12 14 15", "mean fluorescence intensity": "340 a.u."}
{"Modification": "2'F-ANA at 2 3 4 6 7 9 11 12", "mean fluorescence intensity": "634 a.u."}
{"Modification": "2'F-ANA at 1 2 3 4 5 7 8 9 14", "mean fluorescence intensity": "55.5 a.u."}
{"Modification": "2'F-ANA at 1 4 5 6 8 12 13 14 15", "mean fluorescence intensity": "72.8 a.u."}
{"Modification": "2'F-ANA at 4 6 8 9 11 13 15", "mean fluorescence intensity": "153 a.u."}
{"Modification": "2'F-ANA at 2 5 6 8 9 10 11 12 13 15", "mean fluorescence intensity": "52.2 a.u."}
{"Modification": "2'F-ANA at 4 5 8 9 10 11 14", "mean fluorescence intensity": "43.9 a.u."}
{"Modification": "2'F-ANA at 2 3 6 8 9 10 12 14 15", "mean fluorescence intensity": "221 a.u."}
{"Modification": "2'F-ANA at 1 3 5 7 12 13 15", "mean fluorescence intensity": "99.2 a.u."}
{"Modification": "2'F-ANA at 1 5 6 7 8 10 14 15", "mean fluorescence intensity": "46.9 a.u."}
{"Modification": "2'F-ANA at 1 2 3 4 6 7 8 9 10 12 15", "mean fluorescence intensity": "73.9 a.u."}
{"Modification": "2'F-ANA at 2 3 5 6 10 12 13 15", "mean fluorescence intensity": "58.1 a.u."}
{"Modification": "2'F-ANA at 1 3 4 5 8 12 15", "mean fluorescence intensity": "156 a.u."}
{"Modification": "2'F-ANA at 1 4 7 12 13 14 15", "mean fluorescence intensity": "55.7 a.u."}
{"Modification": "2'F-ANA at 1 2 3 5 9 11 13", "mean fluorescence intensity": "47.7 a.u."}
{"Modification": "2'F-ANA at 2 3 6 14", "mean fluorescence intensity": "383 a.u."}
{"Modification": "2'F-ANA at 1 2 3 4 5 9 11 15", "mean fluorescence intensity": "54.5 a.u."}
{"Modification": "2'F-ANA at 1 4 5 7 11 13 15", "mean fluorescence intensity": "78 a.u."}
{"Modification": "2'F-ANA at 3 6 8 9 13 15", "mean fluorescence intensity": "832 a.u."}
{"Modification": "2'F-ANA at 3 5 8 13 15", "mean fluorescence intensity": "98.6 a.u."}
{"Modification": "2'F-ANA at 1 3 4 5 6 8 10 12 14 15", "mean fluorescence intensity": "61.9 a.u."}
{"data": "Sample 2", "target": "Histone acetyltransferase KAT6A, winged helix 1, GST fusion (KAT6A, Homo sapiens, UniProt Q92794, residues 1-85)", "method": "protein binding microarray", "form": "double-stranded DNA, one strand shown", "sample": "in vitro", "tested at": "not given", "notes": "8-mer, flanks averaged, mean of 2 arrays, mostly near background", "baseline": "not given", "direction": "higher = stronger binding", "Residues (chain)": "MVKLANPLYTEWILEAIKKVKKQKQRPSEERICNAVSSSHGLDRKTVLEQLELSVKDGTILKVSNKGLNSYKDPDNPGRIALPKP"}
{"Sequence": "CGACCACG", "E-score": 0.0861}
{"Sequence": "ACGACCAG", "E-score": -0.157}
{"Sequence": "GTTAATGA", "E-score": -0.279}
{"Sequence": "AGTGCACA", "E-score": -0.144}
{"Sequence": "ACGAGGTG", "E-score": -0.159}
{"Sequence": "ATTAGTGC", "E-score": -0.132}
{"Sequence": "ATCCCGTC", "E-score": 0.322}
{"Sequence": "AAAGACAA", "E-score": -0.0832}
{"Sequence": "ACGTTGCT", "E-score": -0.206}
{"Sequence": "ACTCGAAT", "E-score": -0.203}
{"Sequence": "AGATGCAC", "E-score": -0.0704}
{"Sequence": "GACGCACC", "E-score": 0.0689}
{"Sequence": "ATTCTTTG", "E-score": -0.164}
{"Sequence": "ACCGTGAT", "E-score": 0.0746}
{"Sequence": "CGCGAAAC", "E-score": 0.312}
{"Sequence": "ATGCCAGA", "E-score": -0.195}
{"Sequence": "AGGGGCGC", "E-score": 0.218}
{"Sequence": "GGGCAAGA", "E-score": -0.0808}
{"data": "Sample 3", "target": "RNA binding protein fox-1 homolog 2, RRM domain, GST-SBP tag (RBFOX2, Homo sapiens, UniProt O43251-10, residues 100-194)", "method": "RNA Bind-n-Seq", "form": "RNA", "sample": "in vitro", "tested at": "365 nM", "notes": "natural RNA segment, single round, ends assumed", "baseline": "no-protein control", "direction": "higher = stronger binding", "Residues (chain)": "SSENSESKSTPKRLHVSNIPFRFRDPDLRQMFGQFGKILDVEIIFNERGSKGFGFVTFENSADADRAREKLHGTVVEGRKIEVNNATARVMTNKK"}
{"Sequence": "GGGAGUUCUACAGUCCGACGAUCGGCUCUUGAGACCUGAUGCCCUCCUACCCACAUGGUUCUCCCACUGCCCUGUCUGCUCUGCUGCUACAGAGGGGCAGGGCCUCCCCCAGCCCACGCUUAGGAAUGCUUGGUGGAAUUCUCGGGUGCCAA", "RBNS enrichment (R)": 0.942}
{"Sequence": "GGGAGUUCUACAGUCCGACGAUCCAUAGUUAAAGCAUGUGUUCACACUGUGUAAACAUUCACAGAAGACUUUUCCUCGUGUGUUGUUGACUCUUUAAACAUAACAGGUAUUAUUAAAAUUAACUGUUAACUGAUGGAAUUCUCGGGUGCCAA", "RBNS enrichment (R)": 1.1}
{"Sequence": "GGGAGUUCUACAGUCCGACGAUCGGAGCCUGUCAGGUUUUGAGAGCUUGAUUUUAUGGUGGGUUUUGGAUUUAGUUUCCUUUUUCCUUUUUUAAAUAUUGGUUUUAAAAAGGGAGCCUGAUGCCCCCAAUUGGUGGAAUUCUCGGGUGCCAA", "RBNS enrichment (R)": 0.351}
{"Sequence": "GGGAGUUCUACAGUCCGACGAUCAUCUCAUUCAAAUGUUUGUUGUUAUGAUGCAAAUGGAUAUUGGUUUCAAUAGAAGCUGGAUCCUUAAUACUGCAUUUUCUGAAUUCUGUUUUAAUAUUUGUGUUAAAGUAUGGAAUUCUCGGGUGCCAA", "RBNS enrichment (R)": 0.518}
{"Sequence": "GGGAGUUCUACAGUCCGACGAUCGUUUCCAGUGUGACUCGGCAUGUCAUGGCUACCCAACCUUUGCCGCUGCCUGUUCCCACGUGUCACCAGCACGCUGCACUCCAGAUGAAAUCCUCCUAGGACAGGAGUUUUGGAAUUCUCGGGUGCCAA", "RBNS enrichment (R)": 0.585}
{"Sequence": "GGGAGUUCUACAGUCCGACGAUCUACGUUGUGAGUCUGUUAUCUGUCCUAUCGCGUUUUUUAAAUGACUUUUUAUUCUUUAUCAUAGCUAAGUAAAUACCAAAAAAAAAAAAAAGCUUUGUAGGACACUUGUAUGGAAUUCUCGGGUGCCAA", "RBNS enrichment (R)": 0.532}
{"Sequence": "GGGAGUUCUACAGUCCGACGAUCGCGUCUCUGCUGUGUUGCGCAGUGCAGUGGGGUGCAAGGGCUUUGUUUCUGCCUGCCUGAAAGAGAGGGCUCUGGGGAUGGAGAUGAGAAACAACACGCUCUCCUUCAGAUGGAAUUCUCGGGUGCCAA", "RBNS enrichment (R)": 0.891}
{"Sequence": "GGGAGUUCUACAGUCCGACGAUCAUUAUAAUGACAGAAGAAAUGUUGUUUAGACUAUUAUUUUUGUUCGACUCUAAAAGAUUUGCCAAAUAACAAAAGCAUACAAUGCAUACUGUUGGAGAACAAGAAUGCUAUGGAAUUCUCGGGUGCCAA", "RBNS enrichment (R)": 1.09}
{"Sequence": "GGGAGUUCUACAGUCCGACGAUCGGAUGUAUACAGACUUAUUUUCUUUAUUACAGUAUUAUAAGAAAACAUAUGUAUUUGUAAAAAUGGUUUCCUGUGUCAAGUAUUUGUGCAGUCAGAGCUGACUUGUAAACUGGAAUUCUCGGGUGCCAA", "RBNS enrichment (R)": 0.821}
{"data": "Sample 4", "target": "RING finger protein unkempt homolog, zinc fingers 1-6, GST-SBP tag (UNK, Homo sapiens, UniProt Q9C0B0, residues 30-357)", "method": "RNA Bind-n-Seq", "form": "RNA", "sample": "in vitro", "tested at": "not given", "notes": "RNA with constant flanks, ends assumed", "baseline": "input RNA pool", "direction": "higher = stronger binding", "Residues (chain)": "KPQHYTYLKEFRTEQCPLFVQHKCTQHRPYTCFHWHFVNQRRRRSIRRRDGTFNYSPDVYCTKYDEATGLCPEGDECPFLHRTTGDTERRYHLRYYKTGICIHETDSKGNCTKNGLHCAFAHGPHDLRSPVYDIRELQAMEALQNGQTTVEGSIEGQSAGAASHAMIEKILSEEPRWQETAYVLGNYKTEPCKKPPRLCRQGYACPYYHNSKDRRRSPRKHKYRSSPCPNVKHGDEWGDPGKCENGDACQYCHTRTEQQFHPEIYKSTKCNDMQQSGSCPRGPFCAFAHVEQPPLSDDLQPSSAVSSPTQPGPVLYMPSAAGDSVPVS"}
{"Sequence": "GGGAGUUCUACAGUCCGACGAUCCCUACAACCAUCAUGAAUGCAGAUAUUCUAGCAUAUUGUCAGAAGGAAGGAUGGUGCAAAUCCGCUUUUUAUCUUCUAGCAUUUUUUUACUACCUAUAUGGCAUGAUCUAUGUUUUGGUGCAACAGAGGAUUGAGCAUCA", "bound/input enrichment": "0.672 ratio"}
{"Sequence": "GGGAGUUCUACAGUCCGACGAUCCUGGUGUGCCAGGAGAGUACUAAAUUUAAGAAUGUUUGGACAACUCAUUCCAAGUCACCUACCGCCUAUGAGAGAGGAAGAAUAUAUUUUGACAAUUACCGGUGCUGUGUCAGCAGUGUUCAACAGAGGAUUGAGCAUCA", "bound/input enrichment": "0.485 ratio"}
{"Sequence": "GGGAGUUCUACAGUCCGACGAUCAAGAGGGAUCUGUUUGCAAAAAUUAUUGAAGAUCAUCUGGCAAGCAGAAGUGAAGAGAACACCGACCAGCUUGCAGGAUGAACAAGCUGCCCUGUUAGUGCAGUGCUUUGAAGUGGGACCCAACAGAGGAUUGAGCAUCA", "bound/input enrichment": "0.201 ratio"}
{"Sequence": "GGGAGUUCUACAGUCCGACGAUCCAGAAACUUUGUGAAAUUGAAAGGAUACAUUUCUUUCUGAGUAAGAAAAAACCAGAUGAACUCCGAAAUCUACACAAACUGCUUUACAACAGGCCGGGCACAGUGUCCUCGUUGAAGAAGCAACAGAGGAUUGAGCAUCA", "bound/input enrichment": "0.238 ratio"}
{"Sequence": "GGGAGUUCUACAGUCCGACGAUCCUCAGAAUAAAGUCAGAGCUUGGAUUAAAUUUCUAUCAGCAAGUGAAGCUGGUCAAUUUCAUCCGAAGGCAAGUUCACCAAUGCAAGUGCUACAGUUGCCAUGUAAAGUUCAAAUCCAAACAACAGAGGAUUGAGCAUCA", "bound/input enrichment": "0.136 ratio"}
{"Sequence": "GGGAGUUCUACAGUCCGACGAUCAGCGAGCGAAAUCUUUGUACUUCUGAGUUCUUGCUGUAUGUAUGUUUUGUUUUAAAUCUGAUCCGGGACACCCAGCAGCUGGCCGGGAUUCUUGGAUUGCUCCUUGGGAGUUAAGAUUGUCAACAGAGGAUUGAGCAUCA", "bound/input enrichment": "0.119 ratio"}
{"Sequence": "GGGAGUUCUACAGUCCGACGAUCCACAAGGAGCAGGCGGCCCAGCUGCGGAACCUGGUGCAGUGUGGUGACUUUCCUCAUCUGUCCGUGUACGGACCAUCAGGUGCUGGAAAAAAGACAAGAAUUAUGUGUAUUCUACGUGAACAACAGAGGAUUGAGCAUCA", "bound/input enrichment": "0.0947 ratio"}
{"Sequence": "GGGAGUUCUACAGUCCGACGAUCCGUGCUUUUGAAGAUGAUGAUAUCACGCACGUUGAAGGAAGUGUAGAUCCUAUUCGAGAUACCGAAAUAAUACAUGAAGAGCUUCAGCUUAAAGAUGAGGAAAUGAUUGGGCCCAUUAUACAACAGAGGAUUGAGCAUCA", "bound/input enrichment": "0.179 ratio"}
{"Sequence": "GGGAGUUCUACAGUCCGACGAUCCCUGCCUCAGCCUCCCAAGUAGCUGGUACUACAGGUGCGUGCCACCACACCUGGCUUAUUUCCGUUAUUUUAGUAGAGAUAGGGUUUCACCAUGUUGGCCAGGCUGGUCUCGGAACUCCUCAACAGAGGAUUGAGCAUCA", "bound/input enrichment": "0.457 ratio"}
{"Sequence": "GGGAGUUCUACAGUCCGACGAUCCUCAUGCCUUCCAGUCUGCAGACCCCUCAGACCCAGGAGCAGAAUGGGAUUCUAGACUGGCUCCGGAAACUGCGUUUGCACAAGUAUUACCCCGUCUUUAAGCAGCUCUCCAUGGAGAAGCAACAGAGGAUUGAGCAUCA", "bound/input enrichment": "0.123 ratio"}
{"Sequence": "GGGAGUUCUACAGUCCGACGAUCGUGGUUCUGGUCACCGUCGCUGCCAUUGUUAGAAAGAUUUUUAAUGAUAUGCGGGGUGUCGCCGCUAAACAACGGACACAUACAAGAAAACAACAAUUUGAACAUGGAGAGUUGGUUUACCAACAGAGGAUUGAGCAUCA", "bound/input enrichment": "2.54 ratio"}
